# Measurements pooled from the literature.
# Numbered parts are unrelated; each lists some results of a single study.

# Block 1
# Target: Histone acetyltransferase KAT6A, both winged helices, GST fusion (KAT6A, Homo sapiens, UniProt Q92794, residues 1-181)
# Method: protein binding microarray
# Form: double-stranded DNA, one strand shown
# Matrix: in vitro
# Concentration: not given
# Setting: 8-mer, flanks averaged, mean of 2 arrays, mostly near background
# Relative to: not given
# Reading: higher = stronger binding
# Residues (chain): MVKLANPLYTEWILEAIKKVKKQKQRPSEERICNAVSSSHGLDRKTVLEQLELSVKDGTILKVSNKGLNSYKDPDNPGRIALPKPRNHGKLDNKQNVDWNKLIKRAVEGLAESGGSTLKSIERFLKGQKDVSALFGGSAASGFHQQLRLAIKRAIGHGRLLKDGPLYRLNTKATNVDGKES
Sequence,E-score
GACGCTCC,0.183
CCCTTTGC,0.0198
GCGTTAGC,0.222
CTCCATAC,-0.0749
AAAGGTCA,-0.0122
ACTCAAGA,-0.0475
TCACATCA,-0.105
CCGCGGTC,0.355
AAGAAATC,-0.164
ACCTCTCA,-0.0507
AGGCAAGC,-0.126
AGTCCATA,-0.187
CCTATTAG,-0.0322
ACATCAAG,-0.0133
GCATTTCC,0.0117
CAGGGTAG,-0.174
CAGGCAGG,-0.233
ACGCGTCG,0.357
TACATAGA,-0.137

# Block 2
# Target: Prothrombin, mature alpha-thrombin (F2, Homo sapiens, UniProt P00734)
# Method: aptamer microarray, sandwich
# Form: DNA with 2'F-ANA
# Matrix: in vitro
# Concentration: 200 nM
# Setting: whole 15-mer aptamer, many near background
# With: Cy3 exosite-II aptamer, 400 nM
# Reading: higher = stronger binding
# Sequence: GGTTGGTGTGGTTGG
Modification,mean fluorescence intensity [a.u.]
2'F-ANA at 3 4 5 7 9 11 12 13 14,51.8
2'F-ANA at 4 6 11 13,165
2'F-ANA at 1 2 4 5 10 11 12 13,50.1
2'F-ANA at 1 2 3 4 5 8 9 10 11 13,74.7
2'F-ANA at 1 2 4 5 6 8 10 11 12 13,49.9
2'F-ANA at 1 5 6 9 10 11 13 14 15,49.2
2'F-ANA at 1 2 4 5 9 10 12 14 15,44.8
2'F-ANA at 3 4 6 8 10 12 13 15,205
2'F-ANA at 2 5 6 9 12 15,140
2'F-ANA at 1 3 5 11 13,51.9
2'F-ANA at 1 2 4 5 8 10,46.8
2'F-ANA at 1 2 5 7 12 13 14,94.9
2'F-ANA at 1 2 3 7 9 10 12 14 15,48.8
2'F-ANA at 3 4 6 9 10 11 13 15,185
2'F-ANA at 1 2 5 6 8 10 11 12 15,53.4
2'F-ANA at 1 3 4 7 8 9 11 14 15,70.8
2'F-ANA at 1 2 3 4 5 12 14 15,50.4
2'F-ANA at 1 4 5 6 7 9 10 15,64.4
2'F-ANA at 1 4 5 6 9 10 12 13 14,58.6
2'F-ANA at 4 5 11,57.6
2'F-ANA at 1 3 4 6 7 8 10 11 12 13,97.6

# Block 3
# Target: Hepatocyte nuclear factor 3-alpha (Foxa1, Mus musculus, UniProt P35582, residues 1-468, full length assumed)
# Method: EMSA with sequencing
# Form: double-stranded DNA, one strand shown
# Matrix: in vitro
# Concentration: 10 and 20 nM
# Setting: whole designed probe, mean of two concentrations, ends assumed
# Relative to: negative control set to 0
# Reading: higher = stronger binding
# Shared flanks, not repeated: GTGAGCGGTGCCCATTGATGGGGAAC … TTTCACTGGGATCGTGGGGAC
# Residues (chain): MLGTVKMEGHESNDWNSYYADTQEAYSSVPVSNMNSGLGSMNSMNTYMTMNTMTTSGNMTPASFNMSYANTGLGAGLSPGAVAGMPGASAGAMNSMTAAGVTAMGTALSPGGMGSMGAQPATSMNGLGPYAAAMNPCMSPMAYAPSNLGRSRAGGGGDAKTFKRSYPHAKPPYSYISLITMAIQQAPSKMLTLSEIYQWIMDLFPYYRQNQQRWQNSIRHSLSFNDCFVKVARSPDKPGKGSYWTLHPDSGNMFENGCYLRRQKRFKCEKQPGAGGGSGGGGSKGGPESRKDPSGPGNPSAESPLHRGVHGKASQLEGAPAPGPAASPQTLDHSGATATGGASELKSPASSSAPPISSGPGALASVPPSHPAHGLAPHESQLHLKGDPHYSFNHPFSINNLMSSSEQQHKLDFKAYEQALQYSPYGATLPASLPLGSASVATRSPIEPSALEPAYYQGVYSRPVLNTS
Sequence,normalised bound fraction
TGATGATACGTTATAGCATTTCTCTGCTCTGTAAGAGAGGCACCAGGGTCGTGTGCTGGGTCTGGGGTTTGTCCATTCGCACATCCGGTCTGCTGTTGACTCTGGTGTCGGCCGCTGGTGAGCTGGCTGTAGCTGGTCACCTCTGGGTGGTTTCTGGGGCGGTCGCAGGCTGACTAACACACCAAAGGTCAGC,0.0064 ratio
CAAGTTTGTGGTCCAGGAGCAACAGGTTATGCCATACAGCCTAGGTGTGTAGTAGGCTACACACCGTCTATGTTTGTGCCATGACTCATACAATGTTTGCACAATGATGAAATCCCATGTCACATTTCTCAGAACATACCCCTGTTGTTAAGCGATACATGACTGTACTTTTTTTAAAAAGTCCAAGGATATA,0.358 ratio
AAACAGTCCCATCAGGGCAATTTTGTCAATGACAGTTTCGTCAGCCTCCAAACACAGCAGAGTGGAAAACTGGTCATTCTTCAACTTTATCATGTTTATTTTGCTGGTCTTAGGCAATCCTTAAGCAAGTTTGACAAAACCCAGCTATTGCTCAATAAACCTCAGCCTTCTTGCTTGTTGTAGCAAATAAAAT,0.256 ratio
CCAGGGACAATGTGCAGTTGTTGGTCCTGGGTCTTTGACAGACTCCAGGTCAAAGGCAAGACACGGTCAGAAGGGAAAGGATCAAGTCTGTGAGCAAACACCATCAGCCTTGCAATTTGATGGTGGCCTCAAGGAGACATTGGGCGTGTGTTTAAACAAGCAAGGAAGGCAGCTGTACAAGTGCCCTAATCTG,0.24 ratio
CTACTGCACAGAAAATTATCTGCTAAAATTCTGTGCAATGTGCATTGTTATTCTCTAAGTTTTTTTTTAAATAGCTATTTTGTAAAAATCCTAAGTAAACATGACTTGTAATGCAGGATACAAACTTTCATTTGTCTGTGACATCTGCAAGAGAAAGATGTGATGTCCCCATTTAAAGAGGAATAGCTGATTA,0.391 ratio
ACCAGTGCTATCTTCTGCCAACACCAGTAACAGCAGGCAGTAGGACTCCCTGAATAAACATTTTGAAGGCAAAGGTAAAGAAGGGTGGAATAAGCAAATAAGAAGTCACCATTCCTCCTGGAGTAAACCATTCCCTCCTCTGATTGCCTGAAGCTAACCATGAGACAGCAGGACTGGCTACATAATTTTCCAG,0.387 ratio
ATCTTCCCCCTCTTCCTTGCCCCACCAGCTCACCTACGGGGGTTATTTGCACAAAGGAAAATAAATAAAGCCGGCATTCGTTAACCCTCTTCACGCGCATACTGCTGTTTGCTCTGCATCTAACATGGTCCTTACGCGAGGCGTGGCTCCGGGAGAGCAAAGCACCGTGTCAGGCGCATGATCCGGGGTGGCC,0.391 ratio
AACATGCAGAGCTTTCTGATACAAACAAAAGCAGCTTCACCACCAAACAAATGCTAATTCTTTTTTAACGCTCTTATTTCCCTGCAGATCTCTGTTTACATTGAAGAAAATGGTTCTATTTTTTTGTATGCTAAAATACTGAAACAAATTGCTTTGAAAGAGAGAGGAAAAAGGGGTGGGAGAGTTTCCTGCT,0.348 ratio

# Block 4
# Target: Ras GTPase-activating protein-binding protein 1, C-terminal RGG region (G3BP1, Homo sapiens, UniProt Q13283)
# Sequence of UniProt Q13283 (whole entry, looked up): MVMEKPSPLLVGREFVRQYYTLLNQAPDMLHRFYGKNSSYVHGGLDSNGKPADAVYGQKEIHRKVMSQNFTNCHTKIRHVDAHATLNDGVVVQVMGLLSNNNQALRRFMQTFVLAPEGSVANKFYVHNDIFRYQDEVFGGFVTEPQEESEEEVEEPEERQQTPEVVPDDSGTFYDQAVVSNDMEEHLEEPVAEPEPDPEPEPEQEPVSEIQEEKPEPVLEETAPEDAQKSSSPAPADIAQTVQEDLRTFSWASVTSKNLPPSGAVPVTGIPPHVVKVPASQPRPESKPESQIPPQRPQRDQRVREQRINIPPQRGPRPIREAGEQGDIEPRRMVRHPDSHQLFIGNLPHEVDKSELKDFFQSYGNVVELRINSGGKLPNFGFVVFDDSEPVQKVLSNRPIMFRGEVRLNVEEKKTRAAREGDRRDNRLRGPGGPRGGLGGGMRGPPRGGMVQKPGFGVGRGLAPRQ
# Method: RNA Bind-n-Seq
# Form: RNA
# Matrix: in vitro
# Concentration: 1 µM
# Setting: whole 134-nt RNA, ends assumed
# With: 150 mM KCl
# Relative to: input library
# Reading: higher = stronger binding
# Shared flanks, not repeated: GGGAGUUCUACAGUCCGACGAUC … UGGAAUUCUCGGGUGUCAAGG
Sequence,log2 enrichment
CAAGUCCUGUGCUACACAUCGUAUGUACCGAAUCGGCCCCGGCCCCGGGCCCCGGGAAAGUAUUAUGUUACGCCGUUCGGAUCUGCACUU,-2.05
UUUGACGCGGUGUGUUACGUGGGGGAGAGAAUAAAACUCCAGCGAGAUCCGGGCCGUGAACGAAAGCAGUGACGGAGGAGCUUGUACCAC,0.238
AGUCCUGUGCUACACAUCGUAUGUACCGAAUCAAAUUUAAAUUUUUUUAAACCCAAAAAAGUAUUAUGUUACGCCGUUCGGAUCUGCACU,-1.35
GUCCUGUGCUACACAUCGUAUGUACCGAAUCGGGGAAAGGGGAAAAAAAGGGGUGGGGAAAGUAUUAUGUUACGCCGUUCGGAUCUGCAC,1.71
UGUGAAAGAAAACCGAAGUUUUAAAUGACUUCUCAUGGUUAUUUUUUUUCCUUUCUCUUGCAGGACAUUGGGGACACAUUGAGCAGGUAU,-0.489
AAGUCCUGUGCUACACAUCGUAUGUACCGAAUCGGGAAAGGGAAAAAAAGGGAGGGAAAGUAUUAUGUUACGCCGUUCGGAUCUGCACUU,0.851
GUCCUGUGCUACACAUCGUAUGUACCGAAUCGGAAAAAGGGAAAAAGGGGAAAAAGGGAAAGUAUUAUGUUACGCCGUUCGGAUCUGCAC,-0.885
UGGCCCUGGUGGCAUGCGGGGAGGAAGAGGUGGCCUCAUGGAUCGUGGUGGUCCCGGUGGAAUGUUCAGGGGUGGCCGUGGUGGAGACAG,3.49
UCCUCAAGUCCUGUGCUACACAUCGUAUGUACCGAAUCGGUGGUUUGGAGGAAAGUAUUAUGUUACGCCGUUCGGAUCUGCACUUCCAGC,-0.976
CAAGUCCUGUGCUACACAUCGUAUGUACCGAAUCGGGUUUUUGGGAGGGAAAGGGAAAGUAUUAUGUUACGCCGUUCGGAUCUGCACUUC,1.59
AGUCCUGUGCUACACAUCGUAUGUACCGAAUCGGGGCCCCGGGCCCCGGGGCCCCGGGAAAGUAUUAUGUUACGCCGUUCGGAUCUGCAC,-0.233
AAGUCCUGUGCUACACAUCGUAUGUACCGAAUCGGGUUUGGGAAAGGGAAAAAGGGAAAGUAUUAUGUUACGCCGUUCGGAUCUGCACUU,1.43
AGUCCUGUGCUACACAUCGUAUGUACCGAAUCAAAUUUAAAUUUUUAAACCCCCAAAAAAGUAUUAUGUUACGCCGUUCGGAUCUGCACU,-1.15
CCUGUGCUACACAUCGUAUGUACCGAAUCGGUUUUUUUGGGGUUUUUUUGGGUUUUUUUGGAAAGUAUUAUGUUACGCCGUUCGGAUCUG,-1.11

# For quick reference, copied from above (block 2):
Modification,mean fluorescence intensity [a.u.]
2'F-ANA at 3 4 5 7 9 11 12 13 14,51.8
2'F-ANA at 1 2 4 5 9 10 12 14 15,44.8
2'F-ANA at 1 3 5 11 13,51.9
2'F-ANA at 1 2 4 5 10 11 12 13,50.1
2'F-ANA at 1 2 5 7 12 13 14,94.9
